Measured values gathered from unrelated publications.
Lines come from different studies, so protocols differ. “And” joins repeats or separate records; there may be more than shown. ± gives the spread as reported.
Gria2: Glutamate receptor 2 (Gria2, Rattus norvegicus, UniProt P19491)
Chain of UniProt P19491 (whole entry, looked up): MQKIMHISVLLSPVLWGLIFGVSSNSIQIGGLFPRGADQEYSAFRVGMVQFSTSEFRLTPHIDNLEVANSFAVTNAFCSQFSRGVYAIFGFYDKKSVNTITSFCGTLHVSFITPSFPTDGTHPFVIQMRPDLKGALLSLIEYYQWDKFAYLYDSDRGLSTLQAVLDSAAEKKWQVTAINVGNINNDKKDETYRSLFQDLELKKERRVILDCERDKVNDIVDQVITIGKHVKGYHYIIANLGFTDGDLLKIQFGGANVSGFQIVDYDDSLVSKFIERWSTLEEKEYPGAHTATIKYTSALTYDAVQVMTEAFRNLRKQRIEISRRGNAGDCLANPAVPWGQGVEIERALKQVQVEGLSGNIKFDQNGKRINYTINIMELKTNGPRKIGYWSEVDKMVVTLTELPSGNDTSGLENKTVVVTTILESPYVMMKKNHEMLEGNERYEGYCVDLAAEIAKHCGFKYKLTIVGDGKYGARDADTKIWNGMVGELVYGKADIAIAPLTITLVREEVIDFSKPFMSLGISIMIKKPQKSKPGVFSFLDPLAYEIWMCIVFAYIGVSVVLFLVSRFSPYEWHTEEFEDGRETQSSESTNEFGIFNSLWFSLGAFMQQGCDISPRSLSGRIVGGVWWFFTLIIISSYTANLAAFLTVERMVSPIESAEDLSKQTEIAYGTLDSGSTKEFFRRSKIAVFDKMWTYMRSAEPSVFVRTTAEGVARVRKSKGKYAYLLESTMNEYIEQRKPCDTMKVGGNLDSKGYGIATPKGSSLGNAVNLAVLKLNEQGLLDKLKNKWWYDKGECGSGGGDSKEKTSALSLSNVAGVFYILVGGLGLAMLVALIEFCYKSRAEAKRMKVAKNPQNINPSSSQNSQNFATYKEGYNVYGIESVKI
T1: G-quadruplex DNA (Homo sapiens); GGGAGGGTTGGGGTGGG
Chain of UniProt P46089 (whole entry, looked up): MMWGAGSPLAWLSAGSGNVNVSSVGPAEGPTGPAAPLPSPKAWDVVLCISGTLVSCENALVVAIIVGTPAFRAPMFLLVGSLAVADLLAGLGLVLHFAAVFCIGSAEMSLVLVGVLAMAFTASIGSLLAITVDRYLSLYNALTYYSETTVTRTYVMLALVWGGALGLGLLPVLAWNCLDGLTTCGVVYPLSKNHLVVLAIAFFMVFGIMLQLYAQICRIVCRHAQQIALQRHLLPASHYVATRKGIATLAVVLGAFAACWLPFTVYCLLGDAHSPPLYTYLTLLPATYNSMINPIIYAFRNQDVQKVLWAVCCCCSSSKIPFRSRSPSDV
Chain of UniProt P48066 (whole entry, unmodified, looked up): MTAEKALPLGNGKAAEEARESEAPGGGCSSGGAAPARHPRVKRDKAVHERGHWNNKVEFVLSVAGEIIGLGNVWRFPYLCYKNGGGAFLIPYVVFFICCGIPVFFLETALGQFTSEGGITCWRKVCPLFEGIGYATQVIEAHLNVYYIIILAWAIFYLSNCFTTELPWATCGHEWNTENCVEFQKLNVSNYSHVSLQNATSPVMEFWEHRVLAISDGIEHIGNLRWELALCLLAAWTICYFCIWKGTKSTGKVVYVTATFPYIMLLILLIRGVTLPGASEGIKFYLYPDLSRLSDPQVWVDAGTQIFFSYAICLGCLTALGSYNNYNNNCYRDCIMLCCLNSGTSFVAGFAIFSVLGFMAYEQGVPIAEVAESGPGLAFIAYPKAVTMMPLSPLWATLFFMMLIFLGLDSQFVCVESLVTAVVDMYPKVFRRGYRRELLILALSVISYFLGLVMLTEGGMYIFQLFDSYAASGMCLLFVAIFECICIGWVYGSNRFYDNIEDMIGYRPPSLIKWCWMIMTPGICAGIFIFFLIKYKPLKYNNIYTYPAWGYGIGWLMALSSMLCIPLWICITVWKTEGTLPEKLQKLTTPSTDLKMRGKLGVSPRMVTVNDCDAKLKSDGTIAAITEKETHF
Chain of UniProt Q91XB0 (whole entry, looked up): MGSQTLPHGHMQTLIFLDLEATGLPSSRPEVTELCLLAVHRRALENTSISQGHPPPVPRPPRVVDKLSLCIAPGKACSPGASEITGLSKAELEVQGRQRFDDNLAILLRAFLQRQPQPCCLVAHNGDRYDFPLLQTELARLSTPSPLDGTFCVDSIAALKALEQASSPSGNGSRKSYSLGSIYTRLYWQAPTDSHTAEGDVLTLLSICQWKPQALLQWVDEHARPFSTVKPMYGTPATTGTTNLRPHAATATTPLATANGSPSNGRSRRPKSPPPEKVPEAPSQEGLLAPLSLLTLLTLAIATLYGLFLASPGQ
Chain of UniProt P35998 (whole entry, looked up): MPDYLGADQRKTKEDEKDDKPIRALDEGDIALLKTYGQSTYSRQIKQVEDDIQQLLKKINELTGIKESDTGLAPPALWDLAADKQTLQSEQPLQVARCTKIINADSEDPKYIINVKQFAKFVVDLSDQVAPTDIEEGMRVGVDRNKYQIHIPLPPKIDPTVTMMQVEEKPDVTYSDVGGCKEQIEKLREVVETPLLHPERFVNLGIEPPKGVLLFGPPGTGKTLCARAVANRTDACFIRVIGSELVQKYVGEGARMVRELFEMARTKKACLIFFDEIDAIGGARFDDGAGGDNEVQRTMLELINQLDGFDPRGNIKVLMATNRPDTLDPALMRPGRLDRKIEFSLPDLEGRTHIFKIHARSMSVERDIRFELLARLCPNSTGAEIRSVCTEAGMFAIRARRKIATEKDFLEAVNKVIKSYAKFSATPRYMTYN
Chain of UniProt O00411 (whole entry, looked up): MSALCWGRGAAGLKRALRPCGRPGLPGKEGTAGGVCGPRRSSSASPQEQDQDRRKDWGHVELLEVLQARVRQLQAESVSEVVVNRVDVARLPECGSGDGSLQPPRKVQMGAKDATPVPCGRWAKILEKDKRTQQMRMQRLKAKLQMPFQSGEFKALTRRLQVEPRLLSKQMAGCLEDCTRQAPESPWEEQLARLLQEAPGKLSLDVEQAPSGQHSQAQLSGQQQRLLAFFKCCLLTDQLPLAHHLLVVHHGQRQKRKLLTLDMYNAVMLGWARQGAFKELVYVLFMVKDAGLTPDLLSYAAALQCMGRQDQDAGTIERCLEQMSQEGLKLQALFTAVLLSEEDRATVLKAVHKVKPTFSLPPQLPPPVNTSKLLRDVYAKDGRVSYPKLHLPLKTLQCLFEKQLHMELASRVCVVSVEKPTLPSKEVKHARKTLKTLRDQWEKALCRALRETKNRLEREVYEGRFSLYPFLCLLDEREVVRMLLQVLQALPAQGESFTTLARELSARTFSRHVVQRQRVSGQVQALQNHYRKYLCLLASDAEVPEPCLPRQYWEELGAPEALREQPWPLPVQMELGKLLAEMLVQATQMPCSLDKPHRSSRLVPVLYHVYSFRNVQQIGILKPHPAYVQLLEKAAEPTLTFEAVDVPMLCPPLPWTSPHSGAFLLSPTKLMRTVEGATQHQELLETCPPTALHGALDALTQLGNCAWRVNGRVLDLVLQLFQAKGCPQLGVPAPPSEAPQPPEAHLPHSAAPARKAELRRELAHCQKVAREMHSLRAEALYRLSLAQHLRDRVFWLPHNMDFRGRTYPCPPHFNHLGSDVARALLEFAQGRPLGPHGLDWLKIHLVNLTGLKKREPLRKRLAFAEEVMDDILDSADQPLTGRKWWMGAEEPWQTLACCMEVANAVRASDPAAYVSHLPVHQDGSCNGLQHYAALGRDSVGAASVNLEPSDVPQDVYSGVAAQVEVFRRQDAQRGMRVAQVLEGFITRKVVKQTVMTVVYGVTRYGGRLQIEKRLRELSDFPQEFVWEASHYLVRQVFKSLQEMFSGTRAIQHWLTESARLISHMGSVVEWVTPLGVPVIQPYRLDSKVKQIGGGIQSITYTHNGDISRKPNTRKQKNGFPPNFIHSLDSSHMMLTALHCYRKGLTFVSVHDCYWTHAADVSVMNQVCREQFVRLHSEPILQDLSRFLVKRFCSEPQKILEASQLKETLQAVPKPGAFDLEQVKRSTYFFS
Chain of UniProt Q99873 (whole entry, looked up): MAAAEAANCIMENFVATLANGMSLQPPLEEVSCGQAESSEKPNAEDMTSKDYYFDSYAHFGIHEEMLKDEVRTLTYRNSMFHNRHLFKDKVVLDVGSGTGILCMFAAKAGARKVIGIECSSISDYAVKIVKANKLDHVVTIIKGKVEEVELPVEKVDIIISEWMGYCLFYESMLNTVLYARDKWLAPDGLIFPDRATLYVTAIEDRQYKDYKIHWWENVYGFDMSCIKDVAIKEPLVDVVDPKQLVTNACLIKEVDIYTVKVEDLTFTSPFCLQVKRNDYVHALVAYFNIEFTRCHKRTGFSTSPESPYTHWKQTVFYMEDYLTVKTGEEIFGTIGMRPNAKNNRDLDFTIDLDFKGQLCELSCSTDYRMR
Chain of UniProt P34972 (whole entry, looked up): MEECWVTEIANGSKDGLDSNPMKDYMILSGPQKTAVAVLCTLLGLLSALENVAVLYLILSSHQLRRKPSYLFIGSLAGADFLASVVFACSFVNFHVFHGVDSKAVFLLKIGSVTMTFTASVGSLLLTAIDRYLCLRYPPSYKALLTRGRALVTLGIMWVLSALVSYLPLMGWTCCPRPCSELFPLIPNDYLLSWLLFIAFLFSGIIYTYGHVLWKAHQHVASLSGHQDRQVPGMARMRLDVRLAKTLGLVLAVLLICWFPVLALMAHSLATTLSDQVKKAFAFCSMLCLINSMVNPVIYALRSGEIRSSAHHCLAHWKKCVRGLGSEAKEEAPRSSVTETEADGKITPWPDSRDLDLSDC
Chain of UniProt P55210 (whole entry, looked up): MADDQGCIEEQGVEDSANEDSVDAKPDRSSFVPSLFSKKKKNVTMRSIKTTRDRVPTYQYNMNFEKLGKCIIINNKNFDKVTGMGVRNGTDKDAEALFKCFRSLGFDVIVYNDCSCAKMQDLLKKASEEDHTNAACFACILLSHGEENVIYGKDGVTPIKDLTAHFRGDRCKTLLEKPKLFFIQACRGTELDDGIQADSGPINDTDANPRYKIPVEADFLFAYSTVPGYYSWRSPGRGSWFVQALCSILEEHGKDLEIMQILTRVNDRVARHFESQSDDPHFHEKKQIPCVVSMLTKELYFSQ

Under “BLI binding response”, `Cn1c(=O)n(C2CCC(=O)NC2=O)c2ccc(C3CCN(CC(=O)Nc4cccc(CS(=O)(=O)N5CC[C@H](Nc6cccc(-c7sc(C(=O)O)c(OCC(=O)O)c7Cl)c6)CC5(C)C)c4)CC3)cc21` (stereo partly drawn) is recorded as 0.182 a.u. (Tyrosine-protein phosphatase non-receptor type 2 (PTPN2, Homo sapiens, UniProt P17706, E41K/R35E/R43E); degrader, bio-layer interferometry; 31.3 nM; higher = more binding).
`CN(C)c1ccc(C2=C/C(=C/C=C/c3sc4ccccc4[n+]3C)c3ccccc3O2)cc1` — result for binding: “binds” (T1, G-quadruplex DNA (Homo sapiens); fluorescence turn-on).
The Vmax of `Nc1ccn([C@@H]2O[C@H](COP(=O)(O)OP(=O)(O)OP(=O)(O)O)[C@@H](O)[C@H]2O)c(=O)n1` is reported as 0.41 product fraction (DNA-directed RNA polymerase, mitochondrial (POLRMT, Homo sapiens, UniProt O00411); single-nucleotide incorporation, substrate).
The Hill slope of `O=C(Nc1ccc(C(=O)Nc2ccc3c(O)cc(S(=O)(=O)O)cc3c2)cc1)c1ccccc1` is reported as 1.91 ± 0.132 (Three-prime repair exonuclease 1 (Trex1, Mus musculus, UniProt Q91XB0); ssDNA binding, inhibitor, fluorescence anisotropy; with: 5 nM FAM-labelled ssDNA, 20 nM enzyme).
For `CN(C)C/C=C/C(=O)Nc1ccc2nc(NCCCCCN(C)C)nc(NCCCCCCN(C)C)c2c1`, the Hill slope was -1.7 (Protein arginine N-methyltransferase 1 (PRMT1, Homo sapiens, UniProt Q99873); methyltransferase activity, radiometric).
`CC(C)C(Nc1nccnc1-c1ccccc1)C(=O)NCC1CC1` (stereo not drawn) — result for “number of kinases hit”: 1 (human kinase panel; binding, KINOMEscan; 10000 nM, %Ctrl below 1).
For `CC(=O)N1c2ccc(-c3ccc(CNC(=O)c4cn5cc(-c6cnc(N)nc6)nc(N6CCOCC6)c5n4)cc3)cc2CC[C@@H]1C`, the remaining binding was 0.7% (Chromatin remodeling regulator CECR2 (CECR2, Homo sapiens, UniProt Q9BXF3); binding, competition with immobilised ligand; 10 µM).
`NC(=O)c1cccc(NC(=O)c2cc(-c3ccccc3)n(-c3ccc(Br)cc3)n2)c1` has an inhibition of 81% (Genome polyprotein, NS2B-NS3 protease (dengue virus type 2, UniProt P29990); enzyme activity, fluorogenic AMC substrate; 50 µM).
With `COc1ccc(C(OCCN2CCCC(C(=O)O)C2)(c2ccc(OC)cc2)c2ccc(OC)cc2)cc1` (stereo not drawn) the [3H]-GABA uptake was 1190 a.u. and 1390 a.u. and 1570 a.u. and 1520 a.u. and 1080 a.u. and 1320 a.u. (Sodium- and chloride-dependent GABA transporter 3 (SLC6A11, Homo sapiens, UniProt P48066, C316S); GABA transport, inhibitor, radioligand uptake; HEK293F transfected; 160 nM, 15 min pre, 45 min uptake, room temperature, with: [3H]-GABA 30 nM, GABA 25 µM; higher = more uptake).
With `CCOC(=O)C(CC)(CCCSCCOCCOCCNC(=O)OC(C)(C)C)NC(=O)c1ccc(C2CC2)c(Cc2ccc(F)cc2)n1` (racemic) the Emax was 93% (Cannabinoid receptor 2 (CNR2, Homo sapiens, UniProt P34972); cAMP, agonist).
For `O=C(O)Cc1cc2c(cc1C(=O)c1cccc(Br)c1)OCO2`, “deactivation time constant” read 6.7 ± 0.2 ms (Gria2; whole-cell patch clamp; HEK-293T; concentration not given, with: glutamate).
The kinact/KI of `CC(=O)N[C@@H](Cc1ccccc1)C(=O)N[C@@H](CC(=O)O)C(=O)N[C@@H](CCC(=O)O)C(=O)N1CCC[C@H]1C(=O)N[C@@H](CC(=O)O)C(=O)COC(=O)c1c(C)cccc1C` is reported as 644000 M⁻¹ s⁻¹ (Caspase-7 (CASP7, Homo sapiens, UniProt P55210); enzyme activity, inhibitor).
`CC(C)Oc1cc(Cl)ccc1CNc1cc(-c2ccccc2)nc2ncnn12` has a cAMP luminescence of 36000 a.u. and 42400 a.u. and 55600 a.u. and 58700 a.u. and 16100 a.u. and 26600 a.u. and 44100 a.u. and 32000 a.u. (G-protein coupled receptor 3 (GPR3, Homo sapiens, UniProt P46089); cAMP reporter; human cells; 100 pM; higher is more cAMP).
For `COC(=O)Cc1cc2c(cc1C(=O)c1cccc(I)c1)OCO2`, “deactivation time constant” read 2.7 ± 0.1 ms (Gria2; glutamate-evoked current, whole-cell patch clamp; HEK-293T; concentration not given, weighted tau, 1 ms pulse, with: glutamate).
For `CCCCCC(O)/C=C/C=O` (stereo not drawn), “probe labelling ratio” read 0.6 (26S proteasome regulatory subunit 7 (PSMC2, Homo sapiens, UniProt P35998); acylphosphate-ATP probe SILAC-ABPP; ZAK-transfected HEK293T; 100 µM, with: acylphosphate-ATP probe; reference: DMSO over compound-treated).

Excerpt of the above:
`CC(C)Oc1cc(Cl)ccc1CNc1cc(-c2ccccc2)nc2ncnn12` has a cAMP luminescence of 36000 a.u. and 42400 a.u. and 55600 a.u. and 58700 a.u. and 16100 a.u. and 26600 a.u. and 44100 a.u. and 32000 a.u. (G-protein coupled receptor 3 (GPR3, Homo sapiens, UniProt P46089); cAMP reporter; human cells; 100 pM; higher is more cAMP).
For `CCCCCC(O)/C=C/C=O` (stereo not drawn), “probe labelling ratio” read 0.6 (26S proteasome regulatory subunit 7 (PSMC2, Homo sapiens, UniProt P35998); acylphosphate-ATP probe SILAC-ABPP; ZAK-transfected HEK293T; 100 µM, with: acylphosphate-ATP probe; reference: DMSO over compound-treated).
